Measured values pooled from the literature.
Values joined by “and” are separate records of one study, mostly repeats; a detail may differ. ± marks the error that the study gave.

SMILES | target or system | assay | system | setting | how to read | endpoint | result
CN([O-])C(=O)CN1CCN(CC(=O)N(C)[O-])CCN(CC(=O)N(C)[O-])CC1.[89Zr+4] |  | radio-TLC | human serum | 2 days, run 3 |  | intact complex | 96.1%
COc1cccc(OC)c1-c1cc(C(=O)NC2(C(=O)O)C3CC4CC(C3)CC2C4)nn1-c1ccc(C(=O)N(C)CCOCCOCCN(C)C(=O)[C@H](CCCCNC(=O)[C@H](CC(C)C)NC(=O)C2OC2C(=O)O)NC(=O)CN2CCN(CC(=O)[O-])CCN(CC(=O)[O-])CCN(CC(=O)[O-])CC2)cc1C(C)C.[177Lu+3] (mixture of isomers) |  |  | mouse, HT-29 xenograft | 168 h post injection, biodistribution | reference: tumour over muscle uptake | tumour-to-muscle ratio | 1.59
CC[C@H](C)[C@@H]1NC(=O)[C@H](Cc2ccc(O)cc2)NC(=O)CCCSC[C@@H](C(=O)N(CC(=O)N[C@@H](CC(C)C)C(=O)NCC(N)=O)Cc2ccc(F)cc2)NC(=O)[C@H](CC(N)=O)NC(=O)[C@H](CCC(N)=O)NC1=O |  |  | human, plasma | intravenous, 20 µg, infusion |  | Vd | 38 L
CN(Cc1ccccc1)C(=O)CN1CCN(CC(=O)[O-])CCN(CC(=O)N(C)Cc2ccccc2)CC1.[18F-].[Sc+3] |  |  | mouse, blood | intravenous, 1 h |  | tracer uptake | 0.11 %ID/g
Cc1cc(C)nc(NC(=S)N2CCN(Cc3ccc(C(F)(F)F)cc3)CC2)c1 |  |  | plasma | intraperitoneal, 30 mg/kg |  | MRT(0-inf) | 144 min
CN(Cc1ccccc1)C(=O)CN1CCN(CC(=O)[O-])CCN(Cc2cccc(C(=O)[O-])n2)CC1.[18F-].[Sc+3] |  |  | mouse, heart | intravenous, 1 h |  | tracer uptake | 0.1 %ID/g
O=C(CCCCCCCCCCCCCCCCC(=O)Oc1c2n(cc(C(=O)NCc3c(F)cc(F)cc3F)c1=O)CC1OC3CCC(C3)N1C2=O)Oc1c2n(cc(C(=O)NCc3c(F)cc(F)cc3F)c1=O)CC1OC3CCC(C3)N1C2=O (stereo not drawn) |  |  | monkey plasma | 1 µM, 24 h, 1% methanol |  | prodrug hydrolysed | 45%
CN(Cc1ccccc1)C(=O)CN1CCN(CC(=O)[O-])CCN(CC(=O)[O-])CC1.[18F-].[Sc+3] |  |  | mouse, blood | intravenous, 1 h |  | tracer uptake | 0.34 %ID/g
COc1cccc(OC)c1-c1cc(C(=O)NC2(C(=O)O)C3CC4CC(C3)CC2C4)nn1-c1ccc(C(=O)N(C)CCCN(C)CCCN(C)C(=O)[C@H](CCCCNC(=O)[C@H](CC(C)C)NC(=O)C2OC2C(=O)O)NC(=O)CN2CCN(CC(=O)[O-])CCN(CC(=O)[O-])CCN(CC(=O)[O-])CC2)cc1C(C)C.[177Lu+3] (mixture of isomers) |  |  | mouse HT-29 xenograft, large intestine | 24 h post injection, biodistribution |  | tissue uptake | 0.5 %ID/g
CCC(C(=O)Nc1ccc(C(N)=O)c(F)c1)n1cc(OC)c(-c2cc(Cl)ccc2-n2cc(C(F)(F)F)nn2)cc1=O (stereo not drawn) |  |  | healthy male humans | 50 mg, required by protocol, together with: omeprazole |  | procedure-related adverse events | 7.1%
CCCCN1C(=O)c2cccc3c(NCCN4CCOCC4)ccc(c23)C1=O |  |  | DMF |  |  | fluorescence lifetime | 10.3 ns
Cc1n[nH]c(C)c1CCCOc1cc(C(=O)NCCCCC(NC(=O)CN2CCN(CC(=O)[O-])CCN(CC(=O)[O-])CCN(CC(=O)[O-])CC2)C(=O)NCC2CCC(C(=O)NC(Cc3ccc4ccccc4c3)C(=O)NCCCCC(NC(=O)NC(CCC(=O)O)C(=O)O)C(=O)O)CC2)ccc1F.[68Ga+3] (stereo not drawn) |  |  | BALB/c mouse, blood | intravenous |  | elimination half-life | 55 min
O=C(Nc1cnccc1-c1ccc([18F])cc1)c1ccnc(NC(=O)C2CC2)c1 |  | ex vivo gamma counting | GSK-3β transgenic mice, early-stage, liver | intravenous, 120 min, mean, P-gp inhibitor pretreatment, together with: tariquidar 15 mg/kg iv |  | SUV | 5.3
C/C(N)=N/C(=N\S(=O)(=O)c1ccc(C(F)(F)F)cc1)N1C[C@H](c2ccccc2)C(c2ccc(Cl)cc2)=N1 |  |  | C57BL/6 mouse, adipose tissue | intravenous, 10 mg/kg |  | AUC(0-inf) | 59700 ng·h/mL
O=C([O-])CN1CCN(CC(=O)[O-])CCN(Cc2cccc(C(=O)[O-])n2)CC1.[177Lu+3] |  |  | mouse, muscle | intravenous, 1 h |  | tracer uptake | 0.18 %ID/g
C[N+](C)(CCOCCOCCOCCOCCOCCOCCOCCNC(=S)Nc1ccc(CC2CN(CC(=O)[O-])CCN(CC(=O)[O-])CCN2CC(=O)[O-])cc1)C[c-]1cccc1.[64Cu+2].[Fe+2].c1cc[cH-]c1 (stereo not drawn) |  |  | nude mice, BxPC-3 xenograft | 8 h, radioligand only, no pretargeting |  | large intestine uptake | 1.8 ± 1.4 %ID/g
CC(=O)N([O-])CCCCCNC(=O)CCC(=O)N([O-])CCCCCNC(=O)CCC(=O)N([O-])CCCCCN.[89Zr+4] |  | radio-TLC | aqueous buffer | 1 d, pH 7.2, 37 °C, 89Zr-labelled complex, together with: CaCl2 10-fold excess |  | intact complex | 98.3 ± 0.9%
O=C1C2CC3CC1CC(C(=O)N1CCN(c4ccc([N+](=O)[O-])c5ncccc45)CC1)(C3)C2 |  |  | male ICR mouse, plasma | oral, 5 mg/kg |  | CL/F | 2650 mL/min/kg
CN(Cc1ccccc1)C(=O)CN1CCN(CC(=O)N(C)Cc2ccccc2)CCN(Cc2cccc(C(=O)[O-])n2)CC1.[44Sc+3] |  |  | mouse, heart | intravenous, 1 h |  | tracer uptake | 0.68 %ID/g
COc1ccc2c(c1)C(C)(C)C(/C=C/C1=C(Oc3ccc(C(=O)NCCCCOc4cc(CN(Cc5ccccn5)Cc5ccccn5)cc(CN(Cc5ccccn5)Cc5ccccn5)c4)cc3)C(=C/C=C3/N(CCCCS(=O)(=O)[O-])c4ccc(OC)cc4C3(C)C)CCC1)=[N+]2CCCCS(=O)(=O)[O-].O=[N+]([O-])[O-].O=[N+]([O-])[O-].[99Tc+].[C-]#[O+].[C-]#[O+].[C-]#[O+].[Zn+2] |  |  | mouse, liver | 12 h |  | tracer uptake | 21.4 %ID/g

SMILES | target or system | assay | system | setting | how to read | endpoint | result
N=C(N)NCCC[C@@H]1NC(=O)[C@H](CO)NC(=O)[C@@H](NC(=O)[C@H](CO)NC(=O)[C@H](CO)NC(=O)[C@H](Cc2c[nH]c3ccccc23)NC(=O)CNC(=O)[C@H](CO)NC(=O)[C@@H](N)Cc2c[nH]c3ccccc23)CSSC[C@@H](C(=O)NCC(=O)O)NC(=O)[C@H](CO)NC1=O |  |  | patients, plasma | intravenous, 5 mg/kg, thrice weekly, geometric mean |  | AUC(0-80 min) | 350 ng·h/mL
Cc1ncsc1-c1ccc(C(C)NC(=O)C2CC(O)CN2C(=O)C(NC(=O)CCCCCCCCCCN2CCCC(Nc3ncc(Cl)c(Nc4ccccc4S(=O)(=O)C(C)C)n3)C2)C(C)(C)C)cc1 (stereo not drawn) | 22Rv1 | RNA-seq, item: ZNF362 mRNA |  | concentration not given | reference: DMSO | log2 fold change | -1.42
COC(=O)[C@@]1(C(C)C)C=C(C(=O)Nc2cccc(C(=O)Nc3ccc(Nc4nccc(-c5cccnc5)n4)c(C)c3)c2)C(=O)CC1 |  |  | rat, blood plasma | 1 µM, 60 min |  | compound remaining | 88.7% and 91.6%
N#C[C@@H]1CCCN1C(=O)CNC(=O)c1ccnc2ccc(OCCCN3CCN(C(=O)CCc4ccc(O)c(CN5CCN6CC(=O)[O][Al-]([18F])([O]C(=O)C5)[O]c5ccc(CCC(=O)N7CCN(CCCOc8ccc9nccc(C(=O)NCC(=O)N%10CCC[C@H]%10C#N)c9c8)CC7)cc5C6)c4)CC3)cc12 (stereo partly drawn) |  | radio-TLC | CD-1 mice, plasma | intravenous, 60 min post-injection |  | radiochemical purity | 87.9 ± 4.6%
Cc1[nH]nc2c1N=C(c1ccccc1Cl)c1cnc(N3CCOCC3)cc1N2 |  |  | nude mouse HCC1806 xenograft, plasma | oral, 15 mg/kg once daily |  | Tmax | 30 min
CCC(CC)n1c(Cc2ccco2)nc2cc(C(=O)N[C@@H](CC(=O)O)c3ccccc3)ccc21 |  |  | male Sprague-Dawley rat, plasma | intraperitoneal, 10 mg/kg |  | bioavailability | 61.4%
O=C(O)CCCOc1ccc([18F])cc1-c1cc(-c2ccccc2C(F)(F)F)n(-c2ccccc2)n1 |  | OLINDA/EXM from mouse data | human adults, liver |  |  | absorbed dose | 11.5 µGy/MBq
O=C(Nc1cnccc1-c1ccc([18F])nc1)c1ccnc(NC(=O)C2CC2)c1 |  |  | FVB/NJ mice, both sexes, liver | intravenous, 40 min, median, P-gp inhibitor pretreatment, together with: tariquidar 15 mg/kg iv |  | SUV | 8.29
O=C([O-])CN1Cc2cccc(n2)CN(CC(=O)[O-])Cc2cccc(n2)C1.[Mn+2] |  | differential pulse voltammetry |  |  | reference: Ag/AgCl | Mn(II)/Mn(III) half-wave potential | 0.772 V
COC1C=COC2(C)Oc3c(C)c(O)c4c(c3C2=O)C2=NC3(CCN(CC(C)C)CC3)NC2=C(NC(=O)C(C)=CC=CC(C)C(O)C(C)C(O)C(C)C(OC(=O)Nc2cscn2)C1C)C4=O (stereo not drawn) |  |  | CD-1 mouse female, plasma | intravenous, 5 mg/kg |  | elimination rate constant | 2.81e-05 s⁻¹
O=C([O-])CN1CCN(CC(=O)[O-])CCN(C(CO)C(O)CO)CCN(CC(=O)[O-])CC1.[Dy+3] (stereo not drawn) |  |  | female cynomolgus monkey, plasma | intravenous, dose not given |  | distribution half-life | 1.97 min
Cc1nn(-c2nc3c(F)cc(F)cc3s2)c(O)c1C(c1ccc(C(F)(F)F)cc1)c1c(C)nn(-c2nc3c(F)cc(F)cc3s2)c1O |  |  | ICR mouse, plasma | intravenous, 5 mg/kg |  | AUMC extrapolated observed | 18.3% and 65.9% and 39.6%
COc1ccc(CNc2nc([C@H]3CC[C@H](C(=O)O)CC3)nc3sc4ccccc4c23)cc1Cl |  |  |  |  |  | logP | 6.66
CC[C@H](C)[C@H](NC(=O)[C@H](C)NC(=O)CNC(=O)[C@H](Cc1ccccc1)NC(=O)[C@H](CC(N)=O)NC(=O)[C@H](CC(N)=O)NC(=O)[C@H](CO)NC(=O)[C@H](CO)NC(=O)[C@H](Cc1c[nH]cn1)NC(=O)[C@@H](NC(=O)[C@H](CC(C)C)NC(=O)[C@H](Cc1ccccc1)NC(=O)[C@H](CC(N)=O)NC(=O)[C@H](C)NC(=O)[C@H](CC(C)C)NC(=O)[C@H](CCCNC(=N)N)NC(=O)[C@H](CCC(N)=O)NC(=O)[C@@H](NC(=O)[C@H](C)NC(=O)[C@@H]1CSSC[C@H](NC(=O)[C@@H](N)CCCCN)C(=O)N[C@@H](CC(N)=O)C(=O)N[C@@H]([C@@H](C)O)C(=O)N[C@@H](C)C(=O)N[C@@H]([C@@H](C)O)C(=O)N1)[C@@H](C)O)C(C)C)C(=O)N[C@@H](CC(C)C)C(=O)N[C@@H](CO)C(=O)N[C@@H](CO)C(=O)N[C@H](C(=O)N[C@@H](CC(N)=O)C(=O)N[C@H](C(=O)NCC(=O)N[C@@H](CO)C(=O)N[C@@H](CC(N)=O)C(=O)N[C@H](C(=O)N[C@@H](Cc1ccc(O)cc1)C(N)=O)[C@@H](C)O)C(C)C)[C@@H](C)O |  | RP-HPLC | water | 1.0 mg/mL, 7 days, pH 7.5, 40 °C |  | main peak area remaining | < 40%
CCc1cnc(NC(=O)c2cc(S(=O)(=O)N3CCOCC3)ccc2N(C)C2CCCC2)s1 |  |  | mouse, blood | 10 mg/kg, 3 doses |  | Lymphocytes differential count | 66.7%
C=CC(=O)Nc1cc(Nc2nccc(-c3c[nH]c4ccccc34)n2)c(OC)cc1N(C)CCN(C)C |  | storage stability | human dried blood spot | 30 d, on ice, MQC level |  | recovery | 58.1%
COc1cccc(OC)c1-c1cc(C(=O)NC2(C(=O)O)C3CC4CC(C3)CC2C4)nn1-c1ccc(C(=O)N(C)CCCN(C)C(=O)[C@H](CCCCNC(=O)[C@H](CC(C)C)NC(=O)C2OC2C(=O)O)NC(=O)CN2CCN(CC(=O)[O-])CCN(CC(=O)[O-])CCN(CC(=O)[O-])CC2)cc1C(C)C.[177Lu+3] (mixture of isomers) |  |  | mouse, HT-29 xenograft, lung | 168 h post injection |  | tissue uptake | 0.26 %ID/g
CN1CCC[C@]1(C)/C=C/S(=O)(=O)NC(=O)Nc1c2c(cc3c1CCC3)CCC2 |  | item: Headache, possibly related | human | oral, 12.5 mg twice daily, 14 days, multiple ascending dose |  | subjects with adverse event | 0%
C=C(NC(=O)c1csc(-c2nc3c(cc2O)-c2nc(cs2)C(=O)NC(C(C)O)C(=O)NC(=C(C)OC)c2nc(cs2)C(=O)NC2c4nc(cs4)C(=O)NC(COC(=O)c4c5c6c(cccc6n4O)COC(=O)C(OC4CC(C)(O)C(N(C)C)C(C)O4)C2OC5)c2nc-3cs2)n1)C(N)=O (stereo not drawn) |  | metabolic stability | monkey, liver microsomes | 2 µM |  | half-life | 135 min

Excerpt of the above:
SMILES | target or system | assay | system | setting | how to read | endpoint | result
CN([O-])C(=O)CN1CCN(CC(=O)N(C)[O-])CCN(CC(=O)N(C)[O-])CC1.[89Zr+4] |  | radio-TLC | human serum | 2 days, run 3 |  | intact complex | 96.1%
C=C(NC(=O)c1csc(-c2nc3c(cc2O)-c2nc(cs2)C(=O)NC(C(C)O)C(=O)NC(=C(C)OC)c2nc(cs2)C(=O)NC2c4nc(cs4)C(=O)NC(COC(=O)c4c5c6c(cccc6n4O)COC(=O)C(OC4CC(C)(O)C(N(C)C)C(C)O4)C2OC5)c2nc-3cs2)n1)C(N)=O (stereo not drawn) |  | metabolic stability | monkey, liver microsomes | 2 µM |  | half-life | 135 min
Cc1cc(C)nc(NC(=S)N2CCN(Cc3ccc(C(F)(F)F)cc3)CC2)c1 |  |  | plasma | intraperitoneal, 30 mg/kg |  | MRT(0-inf) | 144 min
